Assay results of several laboratories.
Parts stem from different laboratories: compare values within a part only.

Set 1
Target: UBE2H UBC core domain (UniProt P62256)
UniProt P62256, sequence (whole entry, looked up): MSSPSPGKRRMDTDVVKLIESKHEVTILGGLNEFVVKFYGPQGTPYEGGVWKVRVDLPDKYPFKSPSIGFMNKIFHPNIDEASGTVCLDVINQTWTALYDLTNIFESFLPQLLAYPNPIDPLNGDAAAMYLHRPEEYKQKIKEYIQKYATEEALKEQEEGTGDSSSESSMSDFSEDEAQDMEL
Technique: yeast two-hybrid
Sample: yeast
Notes: mostly zero background
Relative to: not given
Reading: higher = stronger interaction
B1: RNF183 RING domain (UniProt Q96D59); chain EQQGRELEAECPVCWNPFNNTFHTPKMLDCCHSFCVECLAHLSLVTPARRRLLCPLCRQPTVLASGQP
B2: ANAPC11 RING domain (UniProt Q9NYG5); chain GICRMAFNGCCPDCKVPGDDCPLVWGQCSHCFHMHCILKWLHAQQVQQHCPMCRQEWKFKE
B3: TRIM54 RING domain (UniProt Q9BYV2); chain SMDNLEKQLICPICLEMFSKPVVILPCQHNLCRKCANDVFQASNPLWQSRGSTTVSSGGRFRCPSCRHEVVLDRHGV
B4: DEF8 RING domain (UniProt Q6ZN54); chain AGRLGCSLTEIHTLFAKHIKLDCERCQAKGFVCELCREGDVLFPFDSHTSVCADCSAVFHRDCYYDNSTTCPKCARLSLRK
B5: MKRN2 RING domain (UniProt Q9H000); chain FAFQASQDKVCSICMEVILEKASASERRFGILSNCNHTYCLSCIRQWRCAKQFENPIIKSCPECRVISEFVIPSV
B6: RNF187 RING domain (UniProt Q5TA31); chain ALPAGPAEAACALCQRAPREPVRADCGHRFCRACVVRFWAEEDGPFPCPECADDCWQRAVEP
B7: TRIM60 RING domain (UniProt Q495X7); chain ALVNLQEESSCPICLEYLKDPVTINCGHNFCRSCLSVSWKDLDDTFPCPVCRFCFPYKSFRR
| Molecule | lacZ reporter activity |
| --- | --- |
| B1 (RNF183 RING domain) | 0 |
| YPEEVDDDLICHICLQALLDPLDTPCGHTYCTLCLTNFLVEKDFCPMDRKPLVLQHCKK (LNX1 RING domain (UniProt Q8TBB1)) | 0 |
| YCEMGSTFQLCKICAENDKDVKIEPCGHLMCTSCLTAWQESDGQGCPFCRCEIKGTEPII (CBLB RING domain (UniProt Q13191)) | 0 |
| LDAASGHPLVCPLCHGQYERPCLLDCFHDFCTGCLRGRATDGRLSCPLCQHQTLVKGPSG (Rnf207 RING domain (UniProt Q3V3A7)) | 0 |
| LGTKLEAKYLCSACRNVLRRPFQAQCGHRYCSFCLASILSSGPQNCAACVHEGIYEEGIS (TRAF2 RING domain (UniProt Q12933)) | 0 |
| B2 (ANAPC11 RING domain) | 0 |
| MNDVLENELQCIICSEYFIEAVTLNCAHSFCSYCINEWMKRKIECPICRKDIKSKTYSL (RNF8 RING domain (UniProt O76064)) | 0 |
| B3 (TRIM54 RING domain) | 0 |
| PEELAVNNDDCAICWDSMQAARKLPCGHLFHNSCLRSWLEQDTSCPTCRMSLNIADNNR (AMFR RING domain (UniProt Q9UKV5)) | 0 |
| AEADPLGRFTCPVCLEVYEKPVQVPCGHVFCSACLQECLKPKKPVCGVCRSALAPGVRAV (RNF114 RING domain (UniProt Q9Y508)) | 0 |
| B4 (DEF8 RING domain) | 0 |
| B5 (MKRN2 RING domain) | 0 |
| B6 (RNF187 RING domain) | 0 |
| B7 (TRIM60 RING domain) | 0 |

Set 2
Target: TAR DNA-binding protein 43, full length, His tag (TARDBP, Homo sapiens, UniProt Q13148, residues 1-414)
Technique: RNA Bind-n-Seq
Form: RNA
Sample: in vitro
Concentration: 20 nM
Notes: 6-mer, flanks averaged, single round
Together with: 150 mM KCl
Relative to: input library
Reading: higher = stronger binding
| Strand | 6-mer enrichment (R) |
| --- | --- |
| UUUCGA | 0.578 |
| CACACA | 0.674 |
| ACGUCA | 0.633 |
| AACGUG | 0.875 |
| AAGAAA | 0.744 |
| CAUCCC | 0.606 |
| CACGUA | 0.663 |
| ACGAGG | 1.91 |
| AAAGCA | 0.643 |
| CCAAAU | 0.642 |
| AAUGCU | 0.665 |
| UUAAUU | 0.627 |
| UAACUC | 0.588 |
| GGGCGU | 3.49 |
| CUAUUU | 0.632 |
| UCGCAC | 0.648 |
| CGAGCC | 0.814 |
| AGCGUC | 0.732 |

Set 3
Target: Histone acetyltransferase KAT6A, both winged helices, GST fusion (KAT6A, Homo sapiens, UniProt Q92794, residues 1-181)
Technique: protein binding microarray
Form: double-stranded DNA, one strand shown
Sample: in vitro
Concentration: not given
Notes: 8-mer, flanks averaged, mean of 2 arrays, mostly near background
Relative to: not given
Reading: higher = stronger binding
Target sequence (chain): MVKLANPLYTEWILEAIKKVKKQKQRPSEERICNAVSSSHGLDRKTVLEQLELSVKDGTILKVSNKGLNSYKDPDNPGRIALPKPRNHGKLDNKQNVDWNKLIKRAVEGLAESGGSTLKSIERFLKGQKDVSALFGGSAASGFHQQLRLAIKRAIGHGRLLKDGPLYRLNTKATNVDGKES
| Strand | E-score |
| --- | --- |
| GTGCCACA | -0.155 |
| AGCTCCTG | -0.0812 |
| ACTCGTCT | -0.163 |
| ACCTGGTC | -0.102 |
| ACGCCCGG | 0.244 |
| AGTATCAT | -0.0391 |
| GATAAGCA | -0.0605 |
| GTCTCGTA | -0.192 |
| GACACCAA | -0.0143 |
| GTACGGAA | 0.218 |
| CCTAGGCA | -0.132 |
| AAAACGTG | 0.00984 |
| ATCTGCTA | -0.298 |
| GGAAAGAA | -0.142 |
| GATCGAAC | -0.046 |
| TACACAGA | -0.104 |
| CGGTGTCC | 0.215 |
| AAATCAGT | 0.0388 |
| CTGTGGAC | -0.194 |
| ATAAACAC | 0.0191 |
| CCATGAGA | -0.0394 |

Set 4
Target: Fragile X messenger ribonucleoprotein 1, C-terminal low-complexity region (Fmr1, Mus musculus, UniProt P35922)
Technique: RNA Bind-n-Seq
Form: RNA
Sample: in vitro
Concentration: 200 nM
Notes: whole 134-nt RNA, ends assumed
Together with: 150 mM LiCl
Relative to: input library
Reading: higher = stronger binding
Each molecule: 7-deaza-guanosine replaces G
Shared flanks, not repeated: GGGAGUUCUACAGUCCGACGAUC … UGGAAUUCUCGGGUGUCAAGG
| Strand | log2 enrichment |
| --- | --- |
| CUCAAGUCCUGUGCUACACAUCGUAUGUACCGAAUCGGCCGGCCGGGCCGGGGAAAGUAUUAUGUUACGCCGUUCGGAUCUGCACUUCCA | 0.649 |
| CCUCAAGUCCUGUGCUACACAUCGUAUGUACCGAAUCGUGUGUGUGUGUGUGUAAAGUAUUAUGUUACGCCGUUCGGAUCUGCACUUCCA | -0.434 |
| GCAGGCAGUAAAAACAAAUGGAAAUGCUUCGGAUAGUGGCAGGGGUGGGGGUUGCUAAGGAAAGGGUGGGAUGGGAGUGGGUAAAGAGUU | 1.31 |
| UCCUCAAGUCCUGUGCUACACAUCGUAUGUACCGAAUCGGUGGUGGGUGGGAAAGUAUUAUGUUACGCCGUUCGGAUCUGCACUUCCAGC | 1.15 |
| UAACUUUAGAGGAGGAUCUGAUGGAUAUGGCAGUGGACGUGGAUUUCGGGAUGGCUAUAAUGGGUAUGGAGGAGGACCUGGAGGUGGCAA | -0.656 |
| CAAGUCCUGUGCUACACAUCGUAUGUACCGAAUCGGGUGGGAAAAAAAGGGUGGGAAAGUAUUAUGUUACGCCGUUCGGAUCUGCACUUC | -0.382 |
| UCCUCAAGUCCUGUGCUACACAUCGUAUGUACCGAAUCGGGAGGAGGGGAGGAAAGUAUUAUGUUACGCCGUUCGGAUCUGCACUUCCAG | -1.33 |
| ACCAUGCAGGUGGGCAUCUUUGGGAAGUGGGGCAAGGGGGGGAUAGGGAGGGGGGUAACACUUUGGGAAGAGGUGGUCCCAGGUCGUUUC | 1.33 |

Set 5
Target: RING finger protein unkempt homolog, zinc fingers 1-6, GST-SBP tag (UNK, Homo sapiens, UniProt Q9C0B0, residues 30-357)
UniProt Q9C0B0, sequence (30-357, looked up): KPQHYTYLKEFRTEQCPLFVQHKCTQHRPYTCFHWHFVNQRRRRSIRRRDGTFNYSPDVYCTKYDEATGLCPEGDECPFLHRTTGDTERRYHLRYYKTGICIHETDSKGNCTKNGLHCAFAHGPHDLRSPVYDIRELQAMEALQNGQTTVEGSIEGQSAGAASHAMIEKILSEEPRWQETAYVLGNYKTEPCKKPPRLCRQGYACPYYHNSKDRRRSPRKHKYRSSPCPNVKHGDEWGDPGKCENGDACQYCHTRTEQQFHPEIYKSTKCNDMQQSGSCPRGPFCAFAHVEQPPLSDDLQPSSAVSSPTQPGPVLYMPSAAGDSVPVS
Technique: RNA Bind-n-Seq
Form: RNA
Sample: in vitro
Concentration: not given
Notes: RNA with constant flanks, human and mouse sites, ends assumed
Relative to: input RNA pool
Reading: higher = stronger binding
Shared flanks, not repeated: GGGAGUUCUACAGUCCGACGAUC … CAACAGAGGAUUGAGCAUCA
| Strand | bound/input enrichment |
| --- | --- |
| AUUGGCCAAGGCCUGAAGCACAGGACCAGCUAGAGGCAGCAGGCUCCGAGUGCCAGGGAGAGCUUGUGGCUGGCCUGUUUUGUAUGAAGAUGGUCCUUUCUGAUCACGACUUCAAAUCCC | 0.123 ratio |
| CUACCUUCUCGUCUUUAUAGUGCCACAAUUUAUACAGUUCUGUGUUUGACCCGUCGUCUUCAUAGCCUGCAGUUCUUGCCAUUGGCUCCGUUAGGUUUGUCUUCACCCACCAGCUUCAUU | 0.638 ratio |
| GGCUUCAGCAGUGUGCUCCAGUUCCUAGGACUCUACAAGAAAUCUGGAAAACUUGUAUUCUUAGGAUUGGACAAUGCGGGCAAAACCACUCUUCUUCACAUGCUGAAAGAUGACAGACUA | 0.262 ratio |
| GACAGCGGAGAAGAGGUGGAUUUGGUUAAGGAAGCAGAUGUUCCCUCAGCUAUUAGCCUUCUUAGAUUUUUUCUUCAAGAACUUCCUGAACCUGUUAUCCCUGGCAGUUUACAUAUUCAC | 2.69 ratio |
| GAAAUUAAAGAGCCUGAAAAUAUUAAUGCAGCUCUUCAAGAAACAGAAGCUCCUUAUAUAUCUAUUGCAUGUGAUUUAAUUAAAGAAACAAAGCUUUCUGCUGAACCAGCUCCGGAUUUC | 0.467 ratio |
| AGAGUGGUUGUGGAACCUGUUGGCCCAGUUGGUUUCAAGCCAGAGACAUUCAGAAAGUUUUUAGCUCUAUAUUUGCAUGGUGCUGCGUGAGCGGAGGACCCCUCUGAAUCCUGAAACCCC | 0.236 ratio |
| UUCCAUCCAGAGUUUGCUAAUCCAGAUUUUACACAACCUAUCUCAGAAGUUGUAGAUGAAGUCAUUCAGAAUUGCCCCAUUGAUGUCCGGCGUCCUCUCUACAAGAACAUUGUCCUCUCU | 0.334 ratio |
| AAUGUCCAAAUCUGUGUUUCCCCCUGCCCUCCCAGACUGUGUGGCCAGUUGAAAGUGUCUGGUUUGUGUUCAUCUCUCCCUCAUUUCUGGAGCAGGGCCUGAGACCCUGCCACAUCUCCU | 0.374 ratio |
| CUGGGCUGCUCGGGUUAGAUCGUCAGGAAAAGCCUAAAGAUUAGACUGUAAGAAAAGAAAAUAGAAGCCAUGUUUCGAAGACCUGUAUUACAGGUACUUCGUCAGUUUGUAAGACAUGAG | 2.23 ratio |
| GCCCGCCUUUUUCUCUCACACUUUGGAUUUUUGUCCUUAGAAGCACUGAAGGAACCUGCAAAUAGUCGUCUACCUCCUCACCUUAUUGCACUUGAUUCCACGAUACCUGGAUUUUUUGAU | 0.537 ratio |
| GACCUGUUGUAGGCAGCUAUCUUACAGACGCAUGAAUGUAAGAGUAGGAAGGGGUGGGUGUCAGGGAUCACUUGGGAUCUUUGACACUUGAAAAAUUACACCUGGCAGCUGCGUUUAAGC | 0.271 ratio |

Excerpt of the above (set 2):
| Strand | 6-mer enrichment (R) |
| --- | --- |
| ACGAGG | 1.91 |
| UCGCAC | 0.648 |
| AAGAAA | 0.744 |
| AGCGUC | 0.732 |
| CGAGCC | 0.814 |
| UUUCGA | 0.578 |
| AACGUG | 0.875 |
| GGGCGU | 3.49 |
| CACACA | 0.674 |
| UAACUC | 0.588 |
